Measurements pooled from the literature.
Compare with care: the assays were run in different laboratories. Numbers after ± are the reported error.
Cell line: HepG2

| SMILES | assay | setting | how to read | endpoint | value |
| --- | --- | --- | --- | --- | --- |
| CC(C)(O)[C@@H]1CC[C@](C)([C@H]2[C@@H](O)C[C@@]3(C)[C@@H]4C[C@H](O)[C@H]5C(C)(C)[C@@H](O)CC[C@@]56C[C@@]46CC[C@]23C)O1 | CCK-8 | 20 µM, 24 h, with: APAP 14 mM | – | viability | 62.3% |
| COc1cc2c3c4c1Oc1cc5c(cc1O4)[C@H](Cc1ccc(OCCCN(C)C)c(c1)Oc1ccc(cc1)C[C@@H]3N(C)CC2)N(C)CC5 | – | – | relative to: cytotoxicity over antimalarial IC50 | selectivity ratio | > 75 |
| CCOc1cccc2c1[O][Pt-2]1([Cl])[N+](=C2)Cc2cccc[n+]21 (stereo not drawn) | flow cytometry PI | concentration not given, 24 h | – | cells in G0/G1 phase | 21 to 27% |
| CC[C@@]1(O)C(=O)OCc2c1cc1n(c2=O)Cc2cc3cc(OC(=O)CCCC(=O)NCC(=O)N[C@@H](Cc4ccccc4)C(=O)N[C@@H](Cc4ccccc4)C(=O)N[C@@H](Cc4ccc(O)cc4)C(=O)NCCS)ccc3nc2-1 | annexin V/PI flow cytometry | 200 nM, 48 h | – | apoptotic cells | ~30% |
| CCC(C)C1NC(=O)C(Cc2ccccc2)NC(=O)C(CCCCCC(=O)C2CO2)NC(=O)C2CCCCN2C1=O (stereo not drawn) | cytotoxicity, MTS | 48 h | – | EC50 | 12 ± 1 µM |
| CC(C)C[C@@H](NC(=O)CCNc1ccc([N+](=O)[O-])c2nonc12)C(=O)N[C@H](CC(C)C)C(=O)N[C@H](CC(C)C)C(=O)N[C@H](CC(C)C)C(=O)N[C@H](Cc1ccc(OP(=O)(O)O)cc1)C(=O)O | MTT | 200 µM, 24 h | – | viability | > 60% |
| C[C@@H](O)[C@@H]1NC(=O)[C@H](CCCCN)NC(=O)CCCC(=O)NCCCC[C@@H](C(=O)NCC(=O)NCC(=O)N[C@@H](Cc2ccc(O)cc2)C(=O)NCC(=O)N[C@@H](CCCNC(=N)N)C(=O)N[C@@H](CCCCN)C(=O)N[C@@H](CCCCN)C(=O)N[C@@H](CCCNC(=N)N)C(=O)N[C@@H](CCCNC(=N)N)C(=O)N[C@@H](CCC(N)=O)C(=O)N[C@@H](CCCNC(=N)N)C(=O)N[C@@H](CCCNC(=N)N)C(=O)N[C@@H](CCCNC(=N)N)C(N)=O)NC(=O)[C@H](CCCCN)NC(=O)[C@H](CCC(=O)O)NC(=O)[C@H](CC(=O)O)NC(=O)CNC1=O | apoptosis, flow cytometry | 40 µM, 16 h | – | caspase-3 positive cells | 0.96% |
| CCCCCCCC(=O)NC(C)(C)C(=O)NCC(=O)N[C@@H](CC(C)C)C(=O)NC(C)(C)C(=O)NCC(=O)N[C@H](C(=O)N[C@H](CO)CC(C)C)[C@@H](C)CC | cytotoxicity, MTS | 48 h | – | EC50 | > 25 µM |
| C[C@@H](O)[C@H](NC(=O)[C@H](CCCCN)NC(=O)CCC(=O)O)C(=O)NCC(=O)N[C@@H](CC(=O)O)C(=O)N[C@@H](CCC(=O)O)C(=O)N[C@@H](CCCCN)C(=O)N[C@@H](CCCCN)C(=O)NCC(=O)NCC(=O)N[C@@H](Cc1ccc(O)cc1)C(=O)NCC(=O)N[C@@H](CCCNC(=N)N)C(=O)N[C@@H](CCCCN)C(=O)N[C@@H](CCCCN)C(=O)N[C@@H](CCCNC(=N)N)C(=O)N[C@@H](CCCNC(=N)N)C(=O)N[C@@H](CCC(N)=O)C(=O)N[C@@H](CCCNC(=N)N)C(=O)N[C@@H](CCCNC(=N)N)C(=O)N[C@@H](CCCNC(=N)N)C(N)=O | apoptosis, flow cytometry | 40 µM, 16 h | – | caspase-3 positive cells | 0.9% |
| CC[C@H](C)[C@H](NC(=O)[C@H](CO)NC(=O)[C@@H]1CCCN1C(=O)C(C)(C)NC(=O)[C@H](CC(C)C)NC(=O)[C@H](CC(N)=O)NC(=O)[C@@](C)(CC)NC(C)=O)C(=O)NC(C)(C)C(=O)N1CCC[C@H]1C(=O)NC(C)(C)C(=O)N[C@@H](CC(C)C)C(=O)NC(C)(C)C(=O)N1CCC[C@H]1C(=O)N[C@H](CO)CC(C)C | cytotoxicity, MTS | 48 h | – | EC50 | > 25 µM |
| C[C@@H](O)[C@@H]1NC(=O)[C@H](CCCCN)NC(=O)CCC(=O)NCCCC[C@@H](C(=O)NCC(=O)NCC(=O)N[C@@H](Cc2ccc(O)cc2)C(=O)NCC(=O)N[C@@H](CCCNC(=N)N)C(=O)N[C@@H](CCCCN)C(=O)N[C@@H](CCCCN)C(=O)N[C@@H](CCCNC(=N)N)C(=O)N[C@@H](CCCNC(=N)N)C(=O)N[C@@H](CCC(N)=O)C(=O)N[C@@H](CCCNC(=N)N)C(=O)N[C@@H](CCCNC(=N)N)C(=O)N[C@@H](CCCNC(=N)N)C(N)=O)NC(=O)[C@H](CCCCN)NC(=O)[C@H](CCC(=O)O)NC(=O)[C@H](CC(=O)O)NC(=O)CNC1=O | apoptosis, flow cytometry | 40 µM, 16 h | – | caspase-3 positive cells | 0.9% |
| CC(=O)NC(C)(C)C(=O)NCC(=O)N[C@@H](C)C(=O)NC(C)(C)C(=O)NC(C)(C)C(=O)N[C@@H](CCC(N)=O)C(=O)NC(C)(C)C(=O)N[C@H](C(=O)NC(C)(C)C(=O)NCC(=O)N[C@@H](CC(C)C)C(=O)NC(C)(C)C(=O)N1CCC[C@H]1C(=O)N[C@@H](CC(C)C)C(=O)NC(C)(C)C(=O)NC(C)(C)C(=O)N[C@@H](CCC(=O)O)C(=O)N[C@H](CO)CC(C)C)C(C)C | cytotoxicity, MTS | 48 h | – | EC50 | > 25 µM |
| O=C1CC2(C1)C(=O)[O][Pt]1([Cl])([O]C(=O)C(Cl)Cl)([NH][C@@H]3CCCC[C@H]3[NH]1)[O]C2=O | mitochondrial membrane potential | 30 µM, 48 h | – | JC-1 red/green fluorescence ratio | 0.86 |
| CCCCCCCC(=O)NC(C)(C)C(=O)NCC(=O)N[C@@H](CC(C)C)C(=O)NC(C)(C)C(=O)NCC(=O)NCC(=O)N[C@H](C(=O)NC(C)(C)C(=O)NCC(=O)N[C@@H](CC(C)C)C(=O)N[C@H](CO)CC(C)C)C(C)C | cytotoxicity, MTS | 48 h | – | EC50 | > 25 µM |
| CC(=O)N[C@H](C(=O)N[C@@H](C)C(=O)N[C@@H](CCC(N)=O)C(=O)N[C@@H](CCC(N)=O)C(=O)N[C@@H](C)C(=O)N[C@@H](C)C(=O)N[C@@H](CC(N)=O)C(=O)N[C@H](C(=O)N[C@@H](C)C(=O)N[C@@H](C)C(=O)N[C@H](C(=O)N[C@@H](CC(C)C)C(=O)N[C@@H](CCCCN)C(N)=O)[C@@H](C)O)C(C)C)C(C)C | JC-1 | concentration not given | – | mitochondrial membrane potential | decreased |
| CC[C@H](C)[C@H](NC(=O)[C@H](C)NC(=O)[C@@H]1CCCN1C(=O)C(C)(C)NC(=O)[C@H](CC(C)C)NC(=O)[C@H](CCC(N)=O)NC(=O)[C@@](C)(CC)NC(C)=O)C(=O)NC(C)(C)C(=O)N1CCC[C@H]1C(=O)NC(C)(C)C(=O)N[C@@H](CC(C)C)C(=O)NC(C)(C)C(=O)N1CCC[C@H]1C(=O)N[C@H](CO)CC(C)C | cytotoxicity, MTS | 48 h | – | EC50 | > 25 µM |
| CC(=O)N[C@H](C(=O)N[C@@H](C)C(=O)N[C@@H](CCC(N)=O)C(=O)N[C@@H](CCC(N)=O)C(=O)N[C@@H](C)C(=O)N[C@@H](C)C(=O)N[C@@H](CC(N)=O)C(=O)N[C@H](C(=O)N[C@@H](C)C(=O)N[C@@H](C)C(=O)N[C@H](C(=O)N[C@@H](CC(C)C)C(=O)N[C@@H](CCCCN)C(=O)N[C@@H](CC(N)=O)C(=O)N[C@@H](CO)C(=O)N[C@@H](CCCNC(=N)N)C(=O)N[C@@H](CO)C(=O)N[C@@H](CC(C)C)C(=O)NCC(=O)N[C@@H](CCC(=O)O)C(=O)N[C@@H](CC(N)=O)C(=O)N[C@@H](CC(=O)O)C(=O)N[C@@H](CC(=O)O)C(=O)NCC(=O)N[C@@H](CC(N)=O)C(=O)N[C@@H](CC(N)=O)C(=O)N[C@@H](CCC(=O)O)C(=O)N[C@@H](CC(=O)O)C(=O)N[C@@H](CC(N)=O)C(=O)N[C@@H](CCC(=O)O)C(=O)N[C@@H](CCCCN)C(=O)N[C@@H](CC(C)C)C(=O)N[C@@H](CCCNC(=N)N)C(N)=O)[C@@H](C)O)C(C)C)C(C)C | – | 320 µg/mL, 10 days | relative to: control | spheroid formation | decreased |
| CC[C@H](C)[C@H](NC(=O)[C@H](CC(C)C)NC(=O)[C@H](CCC(N)=O)NC(=O)[C@@](C)(CC)NC(C)=O)C(=O)NC(C)(C)C(=O)N1CCC[C@H]1C(=O)N[C@](C)(CC)C(=O)N[C@@H](CC(C)C)C(=O)NC(C)(C)C(=O)N1CCC[C@H]1C(=O)N[C@H](CO)CC(C)C | cytotoxicity, MTS | 48 h | – | EC50 | > 25 µM |
| O=C1/C(=C/c2ccc3c(c2)OCCO3)SC(=S)N1[C@@H]1O[C@H](CO)[C@@H](O)[C@H](O)[C@H]1O | item: Casp-8 | IC50, 48 h | relative to: untreated | mRNA fold change | 1.13 fold |
| CC[C@@]1(O)C(=O)OCc2c1cc1n(c2=O)Cc2cc3cc(OC(=O)CCCC(=O)NCC(=O)N[C@@H](Cc4ccccc4)C(=O)N[C@@H](Cc4ccccc4)C(=O)N[C@@H](Cc4ccc(OP(=O)(O)O)cc4)C(=O)NCCSSCCNC(=O)CCC(=O)N[C@@H](CCC(=O)O)C(=O)N[C@@H](CCCNC(=N)N)C(=O)NCC(=O)N[C@@H](CC(=O)O)C(=O)O)ccc3nc2-1 | annexin V/PI flow cytometry | 200 nM, 48 h | – | late apoptotic cells | 75.3% |
| CC[C@H](C)[C@H](NC(=O)[C@H](CO)NC(=O)[C@@H]1CCCN1C(=O)C(C)(C)NC(=O)[C@H](CC(C)C)NC(=O)[C@H](CCC(N)=O)NC(=O)C(C)(C)NC(C)=O)C(=O)NC(C)(C)C(=O)N1CCC[C@H]1C(=O)NC(C)(C)C(=O)N[C@@H](CC(C)C)C(=O)NC(C)(C)C(=O)N1CCC[C@H]1C(=O)N[C@H](CO)CC(C)C | cytotoxicity, MTS | 48 h | – | EC50 | > 25 µM |

A few entries again:
| SMILES | assay | setting | how to read | endpoint | value |
| --- | --- | --- | --- | --- | --- |
| O=C1CC2(C1)C(=O)[O][Pt]1([Cl])([O]C(=O)C(Cl)Cl)([NH][C@@H]3CCCC[C@H]3[NH]1)[O]C2=O | mitochondrial membrane potential | 30 µM, 48 h | – | JC-1 red/green fluorescence ratio | 0.86 |
| CCCCCCCC(=O)NC(C)(C)C(=O)NCC(=O)N[C@@H](CC(C)C)C(=O)NC(C)(C)C(=O)NCC(=O)NCC(=O)N[C@H](C(=O)NC(C)(C)C(=O)NCC(=O)N[C@@H](CC(C)C)C(=O)N[C@H](CO)CC(C)C)C(C)C | cytotoxicity, MTS | 48 h | – | EC50 | > 25 µM |
